Experimental data from different studies.
Numbered parts are unrelated; each lists some results of a single study. Changes are numbered by the printed parent chain.

Study 1
Target: MAFG, bZIP domain (human)
Method: DHFR protein complementation
Matrix: yeast
Notes: single substitutions, most at no-binding floor
Reference: wild-type JUN-FOS pair
Reading: higher = stronger binding
Starting sequence: JUN, bZIP domain (human); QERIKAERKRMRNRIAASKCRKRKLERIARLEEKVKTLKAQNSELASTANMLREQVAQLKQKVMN; partner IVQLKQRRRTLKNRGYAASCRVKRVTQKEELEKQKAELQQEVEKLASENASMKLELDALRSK
Substitution	binding fitness [natural log]
K36E	-1.52
E44K	-1.49
L31W	-1.46
L59W	-1.33
E54G	-1.51
V56N	-1.54
L38P	-1.47
L52H	-1.56
E33F	-1.55
L31N	-1.38
L31C	-1.32
A40Q	-1.22
E32S	-1.35
L38F	-1.34
R53N	-1.25
L38R	-1.44
R30T	-1.5
K39D	-1.48
M51P	-1.42

Study 2
Target: CCNA1, cyclin fold, Cln2 fusion (human)
Method: yeast growth competition, sequencing
Matrix: yeast
Notes: weak parent motif
Reference: not given
Reading: higher = stronger binding
Starting sequence: PKMYT1 docking peptide (human); SFEPRNLLSLFED
Substitution	normalised enrichment score
F2E	-0.119
D13A	0.247
L10Q	0.289
L7K	0.16
E3W	-0.0273
R5K F11L	-0.648
P4G	-0.0122
E12Y	0.277
R5Y	0.177
F11E	0.308
P4H	0.0319
R5H	-0.17
L10K	0.0412
S1E	-0.0473
F2R	0.384
L8N	0.316
E12L	-0.395
R5G	0.377
L8D	0.0182

Study 3
Target: Phosphate system positive regulatory protein PHO4, full length, GST-tagged (PHO4, Saccharomyces cerevisiae, UniProt P07270, residues 1-312)
Method: competition protein-binding microarray
Molecule type: double-stranded DNA, one strand shown
Matrix: in vitro
Concentration: 2 µM
Notes: whole 60-bp probe, lowest competitor level
Together with: Cbf1 competitor, 0.05 µM
Reading: higher = stronger binding
Residues (chain): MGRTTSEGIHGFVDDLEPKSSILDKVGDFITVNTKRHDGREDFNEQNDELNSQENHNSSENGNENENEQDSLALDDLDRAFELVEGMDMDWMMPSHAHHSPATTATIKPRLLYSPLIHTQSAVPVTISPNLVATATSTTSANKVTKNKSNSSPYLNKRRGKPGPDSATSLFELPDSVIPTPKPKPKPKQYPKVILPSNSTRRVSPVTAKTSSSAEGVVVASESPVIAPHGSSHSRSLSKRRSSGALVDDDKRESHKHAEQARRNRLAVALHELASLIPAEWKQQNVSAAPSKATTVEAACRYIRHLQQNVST
Sequence	fluorescence intensity
CGTCCTAGTGATTGCCGTGTGGGTGCCATGAGGAAGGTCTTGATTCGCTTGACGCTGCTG	8530 a.u.
CTTTCCCGATCTTGGATGGTGGGTGTAGCACATTTGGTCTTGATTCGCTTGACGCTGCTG	4430 a.u.
CTTCTGTAAATTTGAGCGGTGGGTGGACGCGCCCCGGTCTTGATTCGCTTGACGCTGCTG	4500 a.u.
GTCTTGTCTCATTGTCACAACACTTTCCCCACTTCAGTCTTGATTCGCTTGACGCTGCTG	4520 a.u.
TGGTTCACAGCTAACCTTGTGACAGTTGCCTCGCTGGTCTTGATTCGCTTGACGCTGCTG	4550 a.u.
CGTCTAAAAGTTCGGCACGTGACAAACCTGGTATTTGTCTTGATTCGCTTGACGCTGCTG	17300 a.u.
TCGCTTCCATTGCTGCCCGTGAAACTGCAAAGGCCAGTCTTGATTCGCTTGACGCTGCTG	3970 a.u.
CACAAGTAGATTTGCCACGCACAACTTTAATACATGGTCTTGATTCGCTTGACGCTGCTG	8280 a.u.
TGCGCAACAACTTGTCACTGAACTTTATGTCTAGAAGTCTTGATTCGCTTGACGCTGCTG	2840 a.u.
CTAACGAAGGTTTGAACGGTGGGTGACAAGCCAAGTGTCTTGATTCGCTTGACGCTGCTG	3410 a.u.
TAAGATCGTCAGTTTCACGTTCGCGGTTCGAACATGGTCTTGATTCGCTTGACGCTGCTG	7150 a.u.
CGTCCTAGTGATTGGCGTGTGGGTGCCATGAGGAAGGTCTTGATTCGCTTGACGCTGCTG	8090 a.u.
GTCTTGTCTCATTGTCACGCTACTTTCCCCACTTCAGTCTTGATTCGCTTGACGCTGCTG	5770 a.u.
CTCGTTACATGTTCCAACGTGACTCGAGAAAGCATGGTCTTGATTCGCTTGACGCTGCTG	11300 a.u.
GATAGGGACGCGCATCATGTGTTGCTACTGTGTTTGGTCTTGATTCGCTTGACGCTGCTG	7390 a.u.
CTTTCCCGATCTTGTTCAGTGGGTGTAGCACATTTGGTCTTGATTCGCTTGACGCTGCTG	4730 a.u.
CGGGGTTAAGTTTGCATGGTGGGTGGCTTGCAGCAGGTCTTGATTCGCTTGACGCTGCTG	6220 a.u.
GCAAAGGAGGGAAAGCACGGGCAGATAGCACCGTACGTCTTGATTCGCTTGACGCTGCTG	7850 a.u.
TTTATATTCTTGTTCCTCGTGGCCGAATGGTTACGGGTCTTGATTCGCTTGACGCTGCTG	13100 a.u.
GGATGAGTCAAAAAGCATGTGACAGTGAAATAATCAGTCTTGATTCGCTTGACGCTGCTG	10100 a.u.
ATCATGTTCAGAACAACCGTGATGGAGAAAATGGAGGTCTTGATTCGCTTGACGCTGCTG	7480 a.u.
CGTCCTAGTGATTGGAGTGTGGGTGCCATGAGGAAGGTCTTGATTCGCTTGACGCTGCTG	7880 a.u.

Study 4
Target: ABI1, truncated, D143A, DHFR fusion (Arabidopsis thaliana)
Method: DHFR PCA, deep sequencing
Matrix: yeast
Notes: methotrexate growth selection, single substitutions
Together with: (+)-ABA 0.0091 µM
Reference: wild-type fitted maximum
Reading: higher = stronger binding
Starting sequence: PYL1, truncated, DHFR fusion (Arabidopsis thaliana); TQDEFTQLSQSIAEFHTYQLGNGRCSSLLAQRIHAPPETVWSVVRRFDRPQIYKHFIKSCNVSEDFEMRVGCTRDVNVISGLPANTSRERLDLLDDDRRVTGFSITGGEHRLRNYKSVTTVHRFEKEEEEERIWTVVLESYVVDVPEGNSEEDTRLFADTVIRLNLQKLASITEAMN; partner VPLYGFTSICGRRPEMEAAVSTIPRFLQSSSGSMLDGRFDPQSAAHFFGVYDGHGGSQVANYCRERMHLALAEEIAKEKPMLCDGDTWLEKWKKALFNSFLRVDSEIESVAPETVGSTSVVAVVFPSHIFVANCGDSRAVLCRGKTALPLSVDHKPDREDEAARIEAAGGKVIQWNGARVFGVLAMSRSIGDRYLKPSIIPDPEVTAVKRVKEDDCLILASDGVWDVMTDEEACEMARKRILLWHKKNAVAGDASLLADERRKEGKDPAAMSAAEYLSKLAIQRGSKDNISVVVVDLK
Substitution	relative binding score
L82K	-2.31%
F124I	61.5%
P37S	2.67%
A13Y	5.07%
N165V	0.627%
N114L	-2.49%
Q51C	-0.192%
V44E	-2.7%
K116Y	0.267%
R74L	-3.55%
N77G	16%
P50I	-2.02%
E128H	30.8%
E125D	9.12%
E109F	-10.8%
N77K	50.5%
T120W	-4%

Study 5
Target: Interferon regulatory factor 7, full length, phosphomimetic (IRF7, Homo sapiens, UniProt Q92985, residues 1-503, S101K/S471D/S472D/S475D/S476D/S477D/S483D/S484D/S487D)
UniProt Q92985, sequence (whole entry, unmodified, looked up): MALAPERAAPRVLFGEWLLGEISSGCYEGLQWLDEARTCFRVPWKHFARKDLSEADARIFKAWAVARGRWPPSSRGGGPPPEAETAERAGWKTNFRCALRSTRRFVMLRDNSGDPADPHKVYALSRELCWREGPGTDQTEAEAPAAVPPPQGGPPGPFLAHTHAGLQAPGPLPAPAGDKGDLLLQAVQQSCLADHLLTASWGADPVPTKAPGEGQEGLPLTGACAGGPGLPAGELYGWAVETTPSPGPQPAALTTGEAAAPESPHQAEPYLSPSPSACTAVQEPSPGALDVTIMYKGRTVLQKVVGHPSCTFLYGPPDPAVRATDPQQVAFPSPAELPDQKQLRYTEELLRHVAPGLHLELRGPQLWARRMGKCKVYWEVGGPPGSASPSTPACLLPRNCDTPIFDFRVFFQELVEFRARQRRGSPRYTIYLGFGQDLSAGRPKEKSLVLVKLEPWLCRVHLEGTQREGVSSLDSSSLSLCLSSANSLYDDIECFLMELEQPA
Method: protein-binding microarray
Molecule type: double-stranded DNA, one strand shown
Matrix: in vitro
Concentration: 250 nM
Notes: 60-bp whole probe
Together with: salmon DNA 0.4 mg/ml
Reference: random background probes
Reading: higher = stronger binding
All sequences stand within: GCCTAGCAC … GTCTTGATTCGCTTGACGCTGCTG
Sequence	log fluorescence
TCAATTCGTCATTTCACACTGTGCTAG	0.823 z-score
GACGATATCAGTATCGAGATGTGCTAG	0.351 z-score
GACGAACTGAGACTCGAGACGTGCTAG	0.504 z-score
GACGGACTGGACACTGGGGGCGTGCTA	-0.131 z-score
GACGGACTGGTGTTTCGGGACGTGCTA	-0.0755 z-score
GACGGTTTGCTACTGCTGACGTGCTAG	-0.111 z-score
TCAAGTTTCATTCCTGAACTGTGCTAG	2.05 z-score
TTAGGTTTCAGTTTCGGTTAGTGCTAG	11.4 z-score
TCAATCTTCACTCTTAATTAGTGCTAG	0.381 z-score
TCATTTTCCTTATTGCTTACTGTGCTA	3.55 z-score
GTCCCTGAATGAAAACATCATGTGCTA	1.81 z-score
GACGGTTTCCGACTGGGGACGTGCTAG	1.14 z-score
GACGAACTGGGACTGGGGACGTGCTAG	-0.265 z-score
TTAGTTTTCGACTTTCGGTTAGTGCTA	6.04 z-score
GACGGTATCGGGTTTCGTGACGTGCTA	2.45 z-score
GACGGACTGGGTTTAGGGACGTGCTAG	-0.421 z-score
AACATACTCGTTTACATTTTGTGCTAG	1.52 z-score
TTAGGTCTCGGTATCGATTAGTGCTAG	3.31 z-score
TCATATTTACTCTCTACAACTGTGCTA	0.959 z-score
TCTCTTTTTGCTTTCTTTTAGTGCTAG	2.71 z-score
GACGGTTCCCGTTTCCTGACGTGCTAG	4.03 z-score
TTAGGACTGGGTATCGGTTGGTGCTAG	0.986 z-score
GACGGTTTCGGTCTCGGTACGTGCTAG	8.07 z-score
TCACCAATGGTCTTTCCAACTGTGCTA	-0.597 z-score
GACGGTTTCGACACTGGGGACGTGCTA	3.82 z-score

A few entries again (study 5):
Sequence	log fluorescence
GACGGTTTGCTACTGCTGACGTGCTAG	-0.111 z-score
TCAAGTTTCATTCCTGAACTGTGCTAG	2.05 z-score
TTAGGTTTCAGTTTCGGTTAGTGCTAG	11.4 z-score
TCAATCTTCACTCTTAATTAGTGCTAG	0.381 z-score
TCATTTTCCTTATTGCTTACTGTGCTA	3.55 z-score
GTCCCTGAATGAAAACATCATGTGCTA	1.81 z-score
GACGGTTTCCGACTGGGGACGTGCTAG	1.14 z-score
GACGAACTGGGACTGGGGACGTGCTAG	-0.265 z-score
TTAGTTTTCGACTTTCGGTTAGTGCTA	6.04 z-score
GACGGTATCGGGTTTCGTGACGTGCTA	2.45 z-score
